Measurements of several laboratories.
Compare with care: the assays were run in different laboratories. Several values in a cell are separate wells, animals, samples, runs or records. ± marks the error that the study gave.
USP14: Ubiquitin carboxyl-terminal hydrolase 14 (USP14, Homo sapiens, UniProt P54578)
Gria2/Glutamate receptor 3: Gria2/Glutamate receptor 3 (Rattus norvegicus, UniProt P19491+P19492)
PPO3: PPO3 (Agaricus bisporus, UniProt C7FF04)

Compound | target | test | test system | setting | how to read | quantity | value
CCCCOc1ccc(CSC(=N)N)cc1 | USP14 | enzyme activity, inhibitor |  | 17 µM |  | inhibition | 4%
CCCCCCCO[C@H]1CO[C@H](CO)[C@@H](O)[C@H](O)[C@@H]1O | Type 1 fimbrin D-mannose specific adhesin, lectin domain (fimH, Escherichia coli K-12, UniProt P08191) | isothermal titration calorimetry |  | concentration not given, 25 °C |  | binding stoichiometry | 1 ± 0.04
CCCCCCCCCCCCC/C=C/C=O | Myosin-9 (MYH9, Homo sapiens, UniProt P35579) | competitive isoTOP-ABPP | proteome, soluble, MDA-MB-231 | 100 µM, with: iodoacetamide probe | reference: DMSO over compound-treated, higher = stronger cysteine blockade | isoTOP-ABPP competition ratio | 1.1
C#CCOC(=O)[C@]1(C)C=C(C(=O)Nc2cccc(C(=O)Nc3ccc(C)c(Nc4nccc(-c5cccnc5)n4)c3)c2)C(=O)CC1 | MAPK9 (Homo sapiens, UniProt P45984) | enzyme activity, inhibitor |  | 0.06097 µM, unit not given | reference: vehicle | remaining activity | 0.683
COc1ccc(C2NC([O-])=C(C#N)C(=O)C2[n+]2ccccc2)cc1 (stereo not drawn) | USP14 | enzyme activity, inhibitor |  | 17 µM |  | inhibition | 48%
CC(C)Oc1cc(Cl)ccc1CNc1cc(-c2ccccc2)nc2ncnn12 | GPR3 (Homo sapiens, UniProt P46089, R152A) | cAMP level, cAMP GloSensor |  | 1 nM | higher = more cAMP | cAMP luminescence | 44000 a.u. and 37600 a.u. and 39800 a.u. and 28800 a.u.
O=c1c(=NO)c(=O)c2ccccc12 | USP14 | enzyme activity, inhibitor |  | 17 µM |  | inhibition | 84%
CCCCN1CC(O)(C(=O)O)C1 | SLC6A9 (Homo sapiens, UniProt P48067) | cell-free assay |  | 1 µM |  | remaining signal | 81.7%
COc1ccc(C(=O)c2c(C(=O)NCCCN(C)C)oc3ccc(Cl)cc3c2=O)cc1OC | GHSR (Homo sapiens, UniProt Q92847) | calcium mobilization | HEK293, stably transfected |  |  | Hill slope | 1.4 ± 0.03
COC(=O)Cc1cc2c(cc1C(=O)c1ccc(Cl)cc1Cl)OCO2 | Gria2/Glutamate receptor 3 | glutamate-evoked current, whole-cell patch clamp | HEK-293T | concentration not given, weighted tau, 500 ms pulse, with: glutamate |  | desensitization time constant | 1.8 ± 0.2 ms
CC(=O)N[C@@H](Cc1ccc(O)cc1)C(=O)N[C@@H](CC(N)=O)C(=O)N1CCC[C@H]1C(=O)N[C@@H](Cc1ccccc1)C(=O)N[C@@H](CCC(=O)O)C(=O)N[C@@H](CCC(=O)O)C(=O)NCC(=O)NCC(N)=O | EH domain-containing protein 1, EH domain (Homo sapiens, UniProt Q9H4M9) | ITC |  | concentration not given, 150 mM NaCl |  | binding stoichiometry | 0.96 ± 0.06
C=CC(=O)N1CCCC(n2c(=O)c3ncccc3n(Cc3ccc(Oc4ccccc4)cc3)c2=O)C1 (stereo not drawn) | PCNA (Homo sapiens, UniProt P12004) | thermal proteome profiling | cell proteome | treated |  | melting temperature | 56.9 °C and 56.6 °C
CC[C@H](C)[C@H](NC(=O)[C@@H](NC(=O)[C@@H](NC(=O)[C@@H](NC(=O)[C@H](CCCNC(=N)N)NC(=O)[C@H](CCC(=O)O)NC(=O)[C@H](CCC(=O)O)NC(=O)[C@H](C)NC(=O)[C@H](CCC(=O)O)NC(=O)CNC(=O)[C@H](C)NC(=O)CN)C(C)C)C(C)C)C(C)C)C(=O)N[C@@H](CO)C(=O)N[C@@H](CO)C(=O)N[C@@H](CO)C(=O)N[C@@H](CCC(=O)O)C(=O)N[C@@H](CC(=O)O)C(=O)N[C@@H](CO)C(=O)N[C@@H](CC(=O)O)C(=O)N[C@@H](C)C(=O)N[C@@H](CCC(=O)O)C(=O)N[C@@H](CC(N)=O)C(=O)N[C@@H](CO)C(=O)N[C@@H](CO)C(=O)N[C@@H](CO)C(=O)N[C@@H](CCCNC(=N)N)C(=O)N[C@@H](Cc1ccc(O)cc1)C(=O)O | Small ubiquitin-related modifier 1 (Homo sapiens, UniProt P63165, C52A) | isothermal titration calorimetry |  | pH 7.4, SUMO1 construct |  | -TΔS | -6.45 ± 0.1 kcal/mol
O=C(CCCCCCS)Nc1ccccc1 | HDAC8 (Homo sapiens, UniProt Q9BY41) | ITC | Tris-HCl buffer | concentration not given, 293 K |  | binding stoichiometry | 1
Cc1ccc(-c2cc(CN3c4ccccc4C=Cc4ccccc43)on2)cc1 | PPO3 | enzyme activity, inhibitor |  | concentration not given |  | apparent Km | 4.99 mM
C=CC(=O)N1CCc2ccc(-n3c(=O)ccc4cnc5ccc(-c6cnn(C)c6)cc5c43)cc21 | Tyrosine-protein kinase ABL1, phosphorylated (ABL1, Homo sapiens, UniProt P00519, M351T) | KINOMEscan, measured: (M351T)-phosphorylated |  | 1 µM | reference: control | remaining binding | 92%
CCCCCC=CC=C1C(=O)C=CC1CC=CCCCC(=O)O (stereo not drawn) | Histone acetyltransferase type B catalytic subunit (Homo sapiens, UniProt O14929) | competitive isoTOP-ABPP, measured: HAT1 cysteine peptide | Ramos soluble proteome | 100 µM, with: iodoacetamide probe | reference: DMSO over compound-treated, higher = stronger cysteine blockade | isoTOP-ABPP competition ratio | 1.8
O=C1c2sc(-c3ccc(N4CCC(F)C4)nc3F)nc2CCN1c1cccnc1 (stereo not drawn) | TAR DNA-binding protein 43, aggregated (TARDBP, Homo sapiens, UniProt Q13148) | radioligand binding | control brain sarkosyl-insoluble extract | 102.04 nM |  | specific binding | 0.211 nM
CC1=CSC(=C(C#N)C(=O)N2CCCCC2)N1c1ccccc1 | USP14 | enzyme activity, inhibitor |  | 17 µM |  | inhibition | 3%
COC(=O)Cc1cc2c(cc1C(=O)c1cccc(Br)c1)OCO2 | Gria2/Glutamate receptor 3 | glutamate-evoked current, whole-cell patch clamp | HEK-293T | concentration not given, weighted tau, 500 ms pulse, with: glutamate |  | desensitization time constant | 2.3 ± 0.2 ms
CC(=O)C12NC(C)(C)CC1(C)C(=O)C1=C2c2c(c3c4n2C(C)(C)CC2=C4C4(CC(C)(C)NC(C)(C4)C2=O)CC3(C)C)C(=O)C(C)(C)N1 (single isomer, unassigned; (+)) | SCN10A (Homo sapiens, UniProt Q9Y5Y9) | sodium current, antagonist, whole-cell patch clamp | HEK293T cells | 10 µM, half-inactivated state (TP2) |  | inhibition | 18.34 ± 0.08%
Oc1cc(O)c2cc(O[C@@H]3OC[C@H](O)[C@H](O)[C@H]3O)c(-c3ccc(O)c(O)c3)[o+]c2c1 | PPO3 | fluorescence quenching |  | concentration not given, 338 K |  | number of binding sites | 0.805
O=C(Nc1cc(C(=O)Nc2ccc(S(=O)(=O)O)cc2S(=O)(=O)O)cc(C(=O)Nc2ccc(S(=O)(=O)O)cc2S(=O)(=O)O)c1)Nc1cc(C(=O)Nc2ccc(S(=O)(=O)O)cc2S(=O)(=O)O)cc(C(=O)Nc2ccc(S(=O)(=O)O)cc2S(=O)(=O)O)c1 | P2X purinoceptor 1 (P2RX1, Homo sapiens, UniProt P51575) | antagonist, calcium influx |  | 1 nM, with: submaximal α,β-methylene ATP | reference: ionomycin response | calcium influx | 96.9%
N[C@H]1C[C@@H](C(=O)O)CC1=C(Cl)Cl | ornithine aminotransferase (Toxoplasma gondii, UniProt S8EY38) | inactivator, SSDH-coupled NADPH |  | with: GABA substrate |  | kinact/KI | 0.0833 M⁻¹ s⁻¹

A few entries again:
Compound | target | test | test system | setting | how to read | quantity | value
COc1ccc(C(=O)c2c(C(=O)NCCCN(C)C)oc3ccc(Cl)cc3c2=O)cc1OC | GHSR (Homo sapiens, UniProt Q92847) | calcium mobilization | HEK293, stably transfected |  |  | Hill slope | 1.4 ± 0.03
COC(=O)Cc1cc2c(cc1C(=O)c1ccc(Cl)cc1Cl)OCO2 | Gria2/Glutamate receptor 3 | glutamate-evoked current, whole-cell patch clamp | HEK-293T | concentration not given, weighted tau, 500 ms pulse, with: glutamate |  | desensitization time constant | 1.8 ± 0.2 ms
CC(=O)N[C@@H](Cc1ccc(O)cc1)C(=O)N[C@@H](CC(N)=O)C(=O)N1CCC[C@H]1C(=O)N[C@@H](Cc1ccccc1)C(=O)N[C@@H](CCC(=O)O)C(=O)N[C@@H](CCC(=O)O)C(=O)NCC(=O)NCC(N)=O | EH domain-containing protein 1, EH domain (Homo sapiens, UniProt Q9H4M9) | ITC |  | concentration not given, 150 mM NaCl |  | binding stoichiometry | 0.96 ± 0.06
C=CC(=O)N1CCCC(n2c(=O)c3ncccc3n(Cc3ccc(Oc4ccccc4)cc3)c2=O)C1 (stereo not drawn) | PCNA (Homo sapiens, UniProt P12004) | thermal proteome profiling | cell proteome | treated |  | melting temperature | 56.9 °C and 56.6 °C
